Results from different studies.
Each numbered part is a random draw from the data of one study; scales do not carry over between parts. Changes are numbered by the printed parent chain.

Series 1 — method: RNA Bind-n-Seq; form: RNA; medium: in vitro; tested at: not given; relative to: input RNA pool; direction: higher = stronger binding
Target: RING finger protein unkempt homolog, zinc fingers 1-6, GST-SBP tag (UNK, Homo sapiens, UniProt Q9C0B0, residues 30-357)
Setting: RNA with constant flanks, human and mouse sites, ends assumed
Residues (chain): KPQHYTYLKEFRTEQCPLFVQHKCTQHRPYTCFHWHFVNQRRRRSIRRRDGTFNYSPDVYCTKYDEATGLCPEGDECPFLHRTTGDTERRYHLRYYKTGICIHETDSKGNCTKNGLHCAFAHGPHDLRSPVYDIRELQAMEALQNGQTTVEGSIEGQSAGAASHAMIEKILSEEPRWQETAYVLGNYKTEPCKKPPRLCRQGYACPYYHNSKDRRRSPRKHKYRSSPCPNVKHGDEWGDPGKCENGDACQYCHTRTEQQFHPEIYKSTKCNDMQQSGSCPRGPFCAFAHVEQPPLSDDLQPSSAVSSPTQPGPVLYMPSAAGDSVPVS
`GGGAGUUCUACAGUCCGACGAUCUUGUUGGGCAAGGUGGGGUCACAGGACAUGGGACUAGUAAGCAUUUUACUGUUUACUAUAUUUGUCUUUUUAUAAACAGUAUCUCCCAAAAUGUGAUUAGAAGGCUACCAAGCCUGUAUUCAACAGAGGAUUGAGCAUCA` gave a bound/input enrichment of 0.364 ratio.
`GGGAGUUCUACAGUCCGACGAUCUAGCUCUCCCUGUGCUAACUGCCUGCGCCUUGACAGCCGGGCUGCGCAAAGCAGAGGGAUUAGUUGGGACCUGCCUUGGUGACCCCAUGGCAUCCCCACGAACCAUAACUAUCAUGGCCCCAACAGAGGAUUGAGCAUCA` gave a bound/input enrichment of 0.0827 ratio.
`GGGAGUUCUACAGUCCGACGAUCAAUUAUAUGAACCAAUUGUAUCAAGCUAUGCAUCGGAUUUAUGAUGCACAGAAUGAAUUGAGUGCAGCAACACACCUGACUUCGAAACUUUUGAAAGAAUAUGAAAAACAGCGUUUUCCUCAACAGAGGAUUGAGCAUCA` has a bound/input enrichment of 0.146 ratio.
With `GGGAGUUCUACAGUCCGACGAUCAUCUAGUUAGGGGUAACCAUUAAUUUAUUUUAUAAAGAAAGGAAAUGCUGAAAGUCGUAUUAGUACUGAGUUUAGUUGGAGAAUUUAGAUAAGUAAGUAUCUUUUAGGUAAUUCUAAAAUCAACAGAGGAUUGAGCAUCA` the bound/input enrichment was 32 ratio.
`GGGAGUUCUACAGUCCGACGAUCUGCCUCUAAGGCUGGGCUCUGCCUCAGAGGAGUUUAUUUUCUUUUUUUCUAUAAAGUUUAAAUAGUCUUUUGAGUGAAUUUUCUGGUCAUUGCCUAUACAAAUAAAUGUAAGAAAUCUGGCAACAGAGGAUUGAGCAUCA` has a bound/input enrichment of 0.987 ratio.
The bound/input enrichment of `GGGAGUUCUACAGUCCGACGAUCCAACUUGGGGAAGAUAUCCGACGAAUUCCCAUUCAUAAUGAAGACAUUACUUACGAUGAAUUAGUGCUAAUGAUGCAGCGAGUAUUCAGAGGAAAGCUUCUGAGUAAUGAUGAAGUUACACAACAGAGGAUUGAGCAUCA` is reported as 0.786 ratio.
With `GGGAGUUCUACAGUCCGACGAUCAGAACUGACUCUCUUCCGUGGAAGAGAUGAACUGAGGAGAACCACCUCUUUUUUAUAGAUGACUUUAUUUCUAAAUUAUGACCAAAAGAUAUUUUGCUAUUUCUUUCUUUAUAUAUGGACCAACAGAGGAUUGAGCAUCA` the bound/input enrichment was 3.97 ratio.
`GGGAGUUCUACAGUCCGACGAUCCUGCGCUCGCUGGCCUUCAGGAAGGAGUUCCAGGACGCUAGCCUCCGCAGUAGCACCUUUAGCUCCUUUGACAAUGACAUAGAGAACCACCUCAUCGGUGGGCACAAUGUGGUUCAGCCCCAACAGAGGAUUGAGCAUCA` gave a bound/input enrichment of 1.43 ratio.
`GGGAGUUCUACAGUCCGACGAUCCAAGCAGCAAAAGAAAAGUCUAAUGCCAAGGCAAAUAGCCACUAUUUGUAUAGACACAAAUAUGAAAACUAUAGGAUGAUCAAAAAAUCAGGUGAAUCAUAUCCUGUGCAUUUCAAAAAACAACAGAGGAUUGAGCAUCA` has a bound/input enrichment of 0.714 ratio.
The bound/input enrichment of `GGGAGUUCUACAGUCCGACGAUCUCACUCCCGUAGCAUGCCCUUGUAGUUUCUCUUGACCAAGGAUGAACUAGUCCUGUGAGCUGGCCGUCAGCUCCUGCAUAUGUGUAUAAACCUCAGAUGUUACUACGUUUUAUACCUACCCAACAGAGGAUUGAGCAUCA` is reported as 1.35 ratio.
With `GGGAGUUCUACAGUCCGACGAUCGGCCAGGAGCGAUUUCACACCAUCACAACCUCCUACUACAGAGGCGCAAUGGGUAUCAUGCUAGUAUAUGACAUCACCAAUGGUAAAAGUUUUGAAAACAUCAGCAAAUGGCUUAGAAACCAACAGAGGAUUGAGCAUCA` the bound/input enrichment was 0.398 ratio.

Series 2 — target: CCNF, cyclin fold, Cln2 fusion (human); method: yeast growth competition, sequencing; medium: yeast; setting: strong parent motif; relative to: not given; direction: higher = stronger binding
Parent: CDC6 docking peptide (human); TLKGRRLVFDNQL
`TLKGRRLVFDNRL [Q12R]`: “normalised enrichment score” 9.2.
`ELKGRRLVFDNQL [T1E]`: “normalised enrichment score” 8.32.
`TLKGRTLVFDNQL [R6T]` — result for “normalised enrichment score”: 6.03.
`TLKGRRLVFDNQD [L13D]` — result for “normalised enrichment score”: 7.69.
`TLYGRRLVFDNQL [K3Y]` — result for “normalised enrichment score”: 8.23.
For `TPKGRRLVFDNQL [L2P]`, “normalised enrichment score” read 7.47.
`TLKGRRLVFNNQL [D10N]` — result for “normalised enrichment score”: 8.11.
Under “normalised enrichment score”, `TLKGRRLVFDHQL [N11H]` is recorded as 8.3.
`TLKGRRCVFDNQL [L7C]` — result for “normalised enrichment score”: 0.944.
`TLNGRRLVFDNQL [K3N]` — result for “normalised enrichment score”: 6.84.
`YLKGRRLVFDNQL [T1Y]` — result for “normalised enrichment score”: 9.49.
Under “normalised enrichment score”, `TWKGRRLVFDNQL [L2W]` is recorded as 7.1.
For `TLKGNRLVFDNQL [R5N]`, “normalised enrichment score” read 0.477.
For `TLKGRRLVFDCQL [N11C]`, “normalised enrichment score” read 8.94.

Series 3 — method: DHFR PCA, deep sequencing; medium: yeast; together with: (+)-ABA 200 µM; relative to: wild-type fitted maximum; direction: higher = stronger binding
Target: ABI1, truncated, D143A, DHFR fusion (Arabidopsis thaliana)
Setting: methotrexate growth selection, single substitutions
Parent: PYL1, truncated, DHFR fusion (Arabidopsis thaliana); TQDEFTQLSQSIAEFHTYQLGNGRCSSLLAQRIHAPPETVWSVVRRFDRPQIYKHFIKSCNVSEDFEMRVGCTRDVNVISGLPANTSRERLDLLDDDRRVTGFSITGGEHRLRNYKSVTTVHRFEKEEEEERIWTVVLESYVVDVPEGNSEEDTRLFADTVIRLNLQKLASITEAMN; partner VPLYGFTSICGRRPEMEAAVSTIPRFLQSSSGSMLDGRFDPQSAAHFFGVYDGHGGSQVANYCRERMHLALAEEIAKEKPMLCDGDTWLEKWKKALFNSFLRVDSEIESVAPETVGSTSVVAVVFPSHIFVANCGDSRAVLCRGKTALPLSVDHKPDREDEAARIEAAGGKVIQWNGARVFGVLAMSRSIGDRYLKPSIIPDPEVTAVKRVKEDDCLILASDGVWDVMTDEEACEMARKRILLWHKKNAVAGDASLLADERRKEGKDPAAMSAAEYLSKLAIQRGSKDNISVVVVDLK
Under “relative binding score”, `E64T` is recorded as 100%.
For `K54W`, “relative binding score” read 18.8%.
`N61R` — result for “relative binding score”: 103%.
Under “relative binding score”, `K116V` is recorded as 64.9%.
`N77Y`: “relative binding score” 106%.
`L91H` — result for “relative binding score”: 6.46%.
`Y53D`: “relative binding score” 0.152%.
`T120M`: “relative binding score” 11.4%.
Under “relative binding score”, `R49A` is recorded as 102%.
`C72D`: “relative binding score” 97.4%.
`T119Q` — result for “relative binding score”: 93.9%.
For `T154Y`, “relative binding score” read -4.44%.
`F66I`: “relative binding score” 95.3%.
For `N114Q`, “relative binding score” read 67.1%.
`R24N`: “relative binding score” 91.3%.
For `K54P`, “relative binding score” read -15.7%.
`N114I` — result for “relative binding score”: -0.932%.
For `E131H`, “relative binding score” read 102%.

Other studies, line by line
With `PhoQ, residues 284 288 289 292 302 303 SMYGEC` the fold induction was 2.63 (PhoP, residues 12 14 15 18 19 TPWLV (Escherichia coli, UniProt P23836); Sort-seq, item: YFP reporter; E. coli; PhoQ-PhoP variant library, together with: 10 µM Mg2+; relative to: high Mg2+ state, higher = stronger signaling).

Excerpt of the above (series 3):
Under “relative binding score”, `K116V` is recorded as 64.9%.
Under “relative binding score”, `R49A` is recorded as 102%.
For `T154Y`, “relative binding score” read -4.44%.
For `N114Q`, “relative binding score” read 67.1%.
For `K54W`, “relative binding score” read 18.8%.
`T119Q` — result for “relative binding score”: 93.9%.
For `E131H`, “relative binding score” read 102%.
